Assay results collected from several papers.
Protocols differ between the studies behind these lines. Numbers after ± are the reported error.

O=C(CN1CCN(CC(=O)NCP(=O)([O-])[O-])CCN(CC(=O)NCP(=O)([O-])[O-])CCN(CC(=O)NCP(=O)([O-])[O-])CC1)NCP(=O)([O-])[O-].[Gd+3] — mean residence time (Sprague-Dawley rats, blood; intravenous, 35 µmol/kg, two-compartment model, together with: GdDTPA 68 µmol/kg co-injected): 49 min
CSCC[C@H](NC(=O)CNC(=O)[C@H](CCCCN)NC(=O)[C@H](CC(C)C)NC(=O)[C@@H]1CCCN1C(=O)[C@H](CO)NC(=O)[C@H](Cc1c[nH]cn1)NC(=O)[C@H](Cc1c[nH]c2ccccc12)NC(=O)[C@H](CCCNC(=N)N)NC(=O)[C@H](CC(C)C)NC(=O)[C@H](CCCNC(=N)N)NC(=O)[C@H](Cc1c[nH]c2ccccc12)NC(=O)[C@H](CS)NC(=O)CCCCCNC(=O)CN1CCN(CC(=O)O)CCN(CC(=O)O)CCN(CC(=O)O)CC1)C(=O)O [copper-64 labelled] — tissue uptake (ex vivo biodistribution; male C57BL/6J mice, pancreas; intravenous, 1.85 MBq, 2 h, B16-F10 tumour-bearing): 1.47 %ID/g
CC(C)(CCCC/C=C/CCCCCC(C)(C)C(=O)O)C(=O)O — plasma concentration (beagle dog, both sexes; oral, dose not given, 3 h): 17700 ng/mL
Cc1cccc2c1C1(CCN(C(=O)c3ccc4[nH]ncc4c3)CC1)C(=O)N2CC(=O)NCC(F)(F)F — CLint (mouse liver microsomes): 21 µL/min/mg protein
CSCC[C@H](N)C(=O)N[C@@H](C)C(=O)N[C@@H](Cc1c[nH]c2ccccc12)C(=O)N[C@@H](Cc1c[nH]cn1)C(=O)N[C@@H](CC(=O)O)C(=O)N[C@@H](CC(=O)O)C(=O)N[C@@H](CCC(=O)O)C(=O)N[C@@H](CCC(=O)O)C(=O)N[C@@H](Cc1ccccc1)C(=O)N[C@@H](C)C(=O)N[C@@H](CCCNC(=N)N)C(=O)N[C@@H](CCCNC(=N)N)C(=O)N[C@@H](CCCNC(=N)N)C(=O)N[C@@H](CCCNC(=N)N)C(=O)NCCCCCC(=O)NCCCCC(NC(=O)CCCCCNC(=O)[C@H](CCCNC(=N)N)NC(=O)[C@H](CCCNC(=N)N)NC(=O)[C@H](CCCNC(=N)N)NC(=O)[C@H](CCCNC(=N)N)NC(=O)[C@H](C)NC(=O)[C@H](Cc1ccccc1)NC(=O)[C@H](CCC(=O)O)NC(=O)[C@H](CCC(=O)O)NC(=O)[C@H](CC(=O)O)NC(=O)[C@H](CC(=O)O)NC(=O)[C@H](Cc1c[nH]cn1)NC(=O)[C@H](Cc1c[nH]c2ccccc12)NC(=O)[C@H](C)NC(=O)[C@@H](N)CCSC)C(=O)NCCCCC(NC(=O)C(CCCCNC(=O)CCCCCNC(=O)[C@H](CCCNC(=N)N)NC(=O)[C@H](CCCNC(=N)N)NC(=O)[C@H](CCCNC(=N)N)NC(=O)[C@H](CCCNC(=N)N)NC(=O)[C@H](C)NC(=O)[C@H](Cc1ccccc1)NC(=O)[C@H](CCC(=O)O)NC(=O)[C@H](CCC(=O)O)NC(=O)[C@H](CC(=O)O)NC(=O)[C@H](CC(=O)O)NC(=O)[C@H](Cc1c[nH]cn1)NC(=O)[C@H](Cc1c[nH]c2ccccc12)NC(=O)[C@H](C)NC(=O)[C@@H](N)CCSC)NC(=O)CCCCCNC(=O)[C@H](CCCNC(=N)N)NC(=O)[C@H](CCCNC(=N)N)NC(=O)[C@H](CCCNC(=N)N)NC(=O)[C@H](CCCNC(=N)N)NC(=O)[C@H](C)NC(=O)[C@H](Cc1ccccc1)NC(=O)[C@H](CCC(=O)O)NC(=O)[C@H](CCC(=O)O)NC(=O)[C@H](CC(=O)O)NC(=O)[C@H](CC(=O)O)NC(=O)[C@H](Cc1c[nH]cn1)NC(=O)[C@H](Cc1c[nH]c2ccccc12)NC(=O)[C@H](C)NC(=O)[C@@H](N)CCSC)C(N)=O (some centres unmarked) — mean tissue distribution (C57BL/6 mouse female, heart; dose not given, 3 h; relative to: total): 0.87%
C=Cc1c(C)c2cc3nc(c(CC(=O)[O-])c4[n-]c(cc5nc(cc1[n-]2)C(C)=C5CC)c(C)c4C(=O)[O-])C(CCC(=O)[O-])C3C.[Cu+2].[Na+].[Na+].[Na+] (centres unmarked) — serum ALT (Wistar rat, female; oral, 500 mg/kg daily, 28 days): 33.5 ± 11 U/L
CC(C)[C@@H]1NC(=O)CNC(=O)[C@H](CC(N)=O)NC(=O)[C@H](CCCNC(=N)N)NC(=O)[C@H](Cc2ccc(O)cc2)NC(=O)[C@H](C(C)C)NC(=O)[C@@H](NC(=O)[C@@H](NC(=O)[C@H](CC(N)=O)NC(=O)[C@H](Cc2c[nH]c3ccccc23)NC(=O)[C@H](C)NC(=O)[C@H](Cc2ccccc2)NC(=O)CNC(=O)[C@H](CCCCN)NC(=O)[C@H](Cc2ccccc2)NC(=O)[C@H](Cc2ccccc2)NC(=O)[C@H](CCCCN)NC(=O)OCC2c3ccccc3-c3ccccc32)C(C)C)CSSC[C@@H](C(=O)N[C@@H](Cc2c[nH]cn2)C(=O)N[C@@H](CCCNC(=N)N)C(=O)N[C@@H](CCCNC(=N)N)C(=O)N[C@@H](C)C(=O)N[C@@H](CC(N)=O)C(N)=O)NC(=O)[C@H](C(C)C)NC(=O)[C@H](CCCNC(=N)N)NC1=O — creatinine (ICR mouse, blood; intramammary, 5 mg/kg, day 5, 3 d dosing): 86.7 ± 1.74 µmol/L
CCc1nn(C)c2nc(-c3ccc(C(=O)O)cc3)nc(NCc3ccccc3)c12 — concentration (male CD-1 mouse, plasma; oral, 10 mg/kg, 15 min): 1260 ng/mL
C[C@H](O)[C@@H](NC(=O)[C@H]1CCCN1C(=O)[C@@H](CCCCN)NC(=O)[C@@H](CO)NC(=O)[C@@H](Cc1ccc(O)cc1)NC(=O)[C@@H](CC(N)=O)NC(=O)CCOCCOCCOCCNC(=O)CN1CCN(CC(=O)O)CCN(CC(=O)O)CCN(CC(=O)O)CC1)C(=O)N[C@H](CC(=O)O)C(=O)N[C@H](CCCNC(=N)N)C(=O)N[C@H](CCC(N)=O)C(=O)N[C@H](Cc1ccc(O)cc1)C(=O)N[C@H](Cc1c[nH]cn1)C(=O)N[C@H](Cc1ccccc1)C(N)=O [gallium-68 labelled] — tissue uptake (ex vivo gamma counting; BALB/c nude mouse, U-87 MG xenograft, intestine; intravenous, 1.85 MBq, 5 min): 0.72 ± 0.27 %ID/g
CC[C@H](C)[C@H](NC(=O)[C@H](CCCCN)NC(=O)CNC(=O)[C@H](CC(C)C)NC(=O)[C@H](Cc1ccccc1)NC(=O)[C@H](CCCCN)NC(=O)[C@H](CO)NC(=O)[C@H](Cc1ccccc1)NC(=O)[C@H](Cc1c[nH]c2ccccc12)NC(=O)[C@H](CCC(N)=O)NC(=O)[C@@H](NC(=O)[C@H](Cc1ccccc1)NC(=O)CCCCCNC(=O)CN1CCN(CC(=O)O)CCN(CC(=O)O)CCN(CC(=O)O)CC1)C(C)C)C(=O)N[C@@H](CCC(=O)O)C(=O)N1CCC[C@H]1C(=O)N[C@@H](CC(=O)O)C(=O)N[C@H](C(=O)N[C@@H](CO)C(=O)N[C@@H](CCC(N)=O)C(=O)N[C@H](C(=O)N[C@@H](CCC(N)=O)C(=O)N[C@@H](CC(=O)O)C(=O)N1CCC[C@H]1C(=O)N[C@@H](CC(N)=O)C(=O)N[C@@H](CC(=O)O)C(=O)N[C@@H](CCC(N)=O)C(=O)N[C@@H](Cc1ccc(O)cc1)C(=O)N[C@@H](CCC(=O)O)C(=O)N1CCC[C@H]1C(=O)N[C@@H](Cc1ccccc1)C(=O)O)C(C)C)C(C)C [copper-64 labelled] — tissue uptake (C57BL/6 mice, pancreas; together with: LPS 3 mg/kg intratracheal): 1.5 ± 0.1 %ID/g
CC(C)C[C@@H](NC(=O)[C@@H](CCCNC(=N)N)NC(=O)[C@@H](Cc1c[nH]cn1)NC(=O)[C@@H](Cc1c[nH]c2ccccc12)NC(=O)[C@@H](Cc1c[nH]cn1)NC(=O)[C@@H](Cc1ccccc1)NC(=O)[C@H](NC(=O)[C@@H](Cc1ccc(O)cc1)NC(=O)CNC(=O)CNC(=O)CCOCCOCCOCCNC(=O)CN1CCN(CC(=O)O)CCN(CC(=O)O)CC1)[C@H](C)O)C(=O)N[C@H](CC(N)=O)C(=O)N1CCC[C@@H]1C(=O)O [gallium-68 labelled] — organ absorbed dose (OLINDA/EXM; adult male human, LLI wall; extrapolated from C57BL/6 mice): 0.0106 ± 5.77e-05 mSv/MBq
CN1Cc2cc(Cl)ccc2-n2c(nnc2C2CCN(c3cccc([18F])n3)CC2)C1 — total volume of distribution (PET two-tissue compartment model; rhesus monkey, hippocampus; intravenous, dose not given, 100 min scan, baseline scan): 1.13 ± 0.31 mL/cm3
O=C1NC2(CC2)COc2ncc(F)cc2[C@H]2COCCN2c2ccn3ncc1c3n2 — albumin/globulin ratio (Sprague-Dawley rat, male, serum; oral, 2.5 mg/kg/day, end of treatment, 4-week repeated-dose toxicity): 1.64 ± 0.17
C#Cc1c(F)ccc2cc(O)cc(-c3ncc4c(N5CC6CCC(C5)N6C(=O)OC(C)OC(C)=O)nc(OC[C@@]56CCCN5C[C@H](F)C6)nc4c3F)c12 (some centres unmarked) — t1/2 (item: prodrug; mouse whole blood; 1 µM): 3.59 min

Some of these lines once more:
CSCC[C@H](N)C(=O)N[C@@H](C)C(=O)N[C@@H](Cc1c[nH]c2ccccc12)C(=O)N[C@@H](Cc1c[nH]cn1)C(=O)N[C@@H](CC(=O)O)C(=O)N[C@@H](CC(=O)O)C(=O)N[C@@H](CCC(=O)O)C(=O)N[C@@H](CCC(=O)O)C(=O)N[C@@H](Cc1ccccc1)C(=O)N[C@@H](C)C(=O)N[C@@H](CCCNC(=N)N)C(=O)N[C@@H](CCCNC(=N)N)C(=O)N[C@@H](CCCNC(=N)N)C(=O)N[C@@H](CCCNC(=N)N)C(=O)NCCCCCC(=O)NCCCCC(NC(=O)CCCCCNC(=O)[C@H](CCCNC(=N)N)NC(=O)[C@H](CCCNC(=N)N)NC(=O)[C@H](CCCNC(=N)N)NC(=O)[C@H](CCCNC(=N)N)NC(=O)[C@H](C)NC(=O)[C@H](Cc1ccccc1)NC(=O)[C@H](CCC(=O)O)NC(=O)[C@H](CCC(=O)O)NC(=O)[C@H](CC(=O)O)NC(=O)[C@H](CC(=O)O)NC(=O)[C@H](Cc1c[nH]cn1)NC(=O)[C@H](Cc1c[nH]c2ccccc12)NC(=O)[C@H](C)NC(=O)[C@@H](N)CCSC)C(=O)NCCCCC(NC(=O)C(CCCCNC(=O)CCCCCNC(=O)[C@H](CCCNC(=N)N)NC(=O)[C@H](CCCNC(=N)N)NC(=O)[C@H](CCCNC(=N)N)NC(=O)[C@H](CCCNC(=N)N)NC(=O)[C@H](C)NC(=O)[C@H](Cc1ccccc1)NC(=O)[C@H](CCC(=O)O)NC(=O)[C@H](CCC(=O)O)NC(=O)[C@H](CC(=O)O)NC(=O)[C@H](CC(=O)O)NC(=O)[C@H](Cc1c[nH]cn1)NC(=O)[C@H](Cc1c[nH]c2ccccc12)NC(=O)[C@H](C)NC(=O)[C@@H](N)CCSC)NC(=O)CCCCCNC(=O)[C@H](CCCNC(=N)N)NC(=O)[C@H](CCCNC(=N)N)NC(=O)[C@H](CCCNC(=N)N)NC(=O)[C@H](CCCNC(=N)N)NC(=O)[C@H](C)NC(=O)[C@H](Cc1ccccc1)NC(=O)[C@H](CCC(=O)O)NC(=O)[C@H](CCC(=O)O)NC(=O)[C@H](CC(=O)O)NC(=O)[C@H](CC(=O)O)NC(=O)[C@H](Cc1c[nH]cn1)NC(=O)[C@H](Cc1c[nH]c2ccccc12)NC(=O)[C@H](C)NC(=O)[C@@H](N)CCSC)C(N)=O (some centres unmarked) — mean tissue distribution (C57BL/6 mouse female, heart; dose not given, 3 h; relative to: total): 0.87%
